Assay results of several laboratories.
Each numbered part is a random draw from the data of one study; scales do not carry over between parts. Positions count from the first letter of the parent shown.

Series 1
Target: ABI1, truncated, D143A, DHFR fusion (Arabidopsis thaliana)
Method: DHFR PCA, deep sequencing
Medium: yeast
Notes: methotrexate growth selection, single substitutions
Together with: (+)-ABA 200 µM
Relative to: wild-type fitted maximum
Direction: higher = stronger binding
Parent: PYL1, truncated, DHFR fusion (Arabidopsis thaliana); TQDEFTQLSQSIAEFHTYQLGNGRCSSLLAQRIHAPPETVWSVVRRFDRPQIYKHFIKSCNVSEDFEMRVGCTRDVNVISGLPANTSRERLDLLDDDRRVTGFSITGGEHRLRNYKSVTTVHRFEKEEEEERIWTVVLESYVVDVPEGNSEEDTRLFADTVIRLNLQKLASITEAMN
Variant | relative binding score [%]
L169Q | 8.92
E128Q | 105
R88K | 100
P37A | 89.3
Q167F | 78.3
Q2F | 101
D97V | 103
R74F | 0.616
T119C | 96.8
T1I | 101
E4N | 91.6

Series 2
Target: Prothrombin, mature alpha-thrombin (F2, Homo sapiens, UniProt P00734)
Method: aptamer microarray, sandwich
Molecule type: DNA with 2'F-ANA
Medium: in vitro
Tested at: 200 nM
Notes: whole 15-mer aptamer, many near background
Together with: Cy3 exosite-II aptamer, 400 nM
Direction: higher = stronger binding
Strand: GGTTGGTGTGGTTGG
Modification | mean fluorescence intensity [a.u.]
2'F-ANA at 1 2 5 6 7 8 14 15 | 51.4
2'F-ANA at 1 8 10 12 13 | 66.9
2'F-ANA at 1 2 3 5 9 10 14 15 | 49.8
2'F-ANA at 5 7 10 13 15 | 46.5
2'F-ANA at 1 2 10 11 | 53.8
2'F-ANA at 3 4 5 6 11 13 | 64.6
2'F-ANA at 2 10 | 142
2'F-ANA at 2 4 5 7 8 9 12 13 | 93.4
2'F-ANA at 1 4 8 10 11 15 | 55.3
2'F-ANA at 6 9 10 11 12 15 | 208
2'F-ANA at 2 3 6 8 14 15 | 399
2'F-ANA at 5 8 9 11 13 15 | 55
2'F-ANA at 3 4 5 6 7 | 94.1
2'F-ANA at 1 2 4 5 6 7 8 9 10 13 14 15 | 51.5
2'F-ANA at 2 3 6 8 10 11 13 15 | 290
2'F-ANA at 1 3 4 5 6 8 10 | 97.1
2'F-ANA at 6 10 11 13 14 | 134
2'F-ANA at 2 7 8 9 10 14 | 94.5
2'F-ANA at 1 3 4 5 6 7 8 9 11 14 15 | 57.2
2'F-ANA at 2 3 4 7 8 10 11 13 14 | 179
2'F-ANA at 7 8 12 14 | 350
2'F-ANA at 2 4 8 9 11 | 327
2'F-ANA at 1 2 3 11 14 | 71.3
2'F-ANA at 1 3 4 5 6 7 14 | 54.4
2'F-ANA at 4 5 8 10 11 14 15 | 46.8

Series 3
Target: CCNF, cyclin fold, Cln2 fusion (human)
Method: yeast growth competition, sequencing
Medium: yeast
Notes: strong parent motif
Relative to: not given
Direction: higher = stronger binding
Parent: RRM2 docking peptide (human); SKTARRIFQEPTE
Variant | normalised enrichment score
T12A | 4.73
T3A | 1.9
S1A | 4.58
E10A | 2.74
R6A | 3.83
E13A | 4.17

Series 4
Target: FOSB, bZIP domain (human)
Method: DHFR protein complementation
Medium: yeast
Notes: single substitutions, most at no-binding floor
Relative to: wild-type JUN-FOS pair
Direction: higher = stronger binding
Parent: JUN, bZIP domain (human); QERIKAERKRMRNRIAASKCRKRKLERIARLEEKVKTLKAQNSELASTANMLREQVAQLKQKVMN; partner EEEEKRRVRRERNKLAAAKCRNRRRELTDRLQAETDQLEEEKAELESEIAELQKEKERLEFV
Variant | binding fitness [natural log]
A46Y | -0.254
K36T | -0.241
E44K | -0.0354
A46T | -0.0313
R30V | 0.108
A46L | -0.112
T37V | -0.11
I28W | -0.153
K39R | 0.047
L45S | -1.13
L31N | -0.744
A57T | -0.156
K39W | -1.04
V56M | -0.991
V56T | -0.815
R53N | -0.962
K36W | -0.388
A46M | -0.107

Series 5
Target: Histone acetyltransferase KAT6A, winged helix 1, GST fusion (KAT6A, Homo sapiens, UniProt Q92794, residues 1-85)
Method: protein binding microarray
Molecule type: double-stranded DNA, one strand shown
Medium: in vitro
Tested at: not given
Notes: 8-mer, flanks averaged, mean of 2 arrays, mostly near background
Relative to: not given
Direction: higher = stronger binding
Target sequence (chain): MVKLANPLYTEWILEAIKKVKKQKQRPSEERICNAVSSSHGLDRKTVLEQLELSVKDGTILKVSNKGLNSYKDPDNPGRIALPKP
Strand | E-score
ACAGGGAT | -0.288
AAAAGGCT | -0.0551
CCAGGCAG | -0.14
ATCCCTGG | -0.2
AAGCGTAT | 0.179
AAATGAGG | -0.265
AGCTACGG | 0.19
AATACTAC | -0.17
ATGACTGA | -0.136
ACGGTGGG | 0.106
TCCCCAAA | -0.195
AGGGGGAA | -0.059
CAATCCTG | -0.177
TACTATGA | -0.198
CACGGAGG | 0.0599
GCGGGTGA | 0.342
AACGCGAT | 0.122
TAAGCCAA | -0.256
CAATACCG | 0.293

Series 6
Target: Centromere-binding protein 1, full length, His-tagged (CBF1, Saccharomyces cerevisiae, UniProt P17106, residues 1-351)
UniProt P17106, sequence (whole entry, looked up): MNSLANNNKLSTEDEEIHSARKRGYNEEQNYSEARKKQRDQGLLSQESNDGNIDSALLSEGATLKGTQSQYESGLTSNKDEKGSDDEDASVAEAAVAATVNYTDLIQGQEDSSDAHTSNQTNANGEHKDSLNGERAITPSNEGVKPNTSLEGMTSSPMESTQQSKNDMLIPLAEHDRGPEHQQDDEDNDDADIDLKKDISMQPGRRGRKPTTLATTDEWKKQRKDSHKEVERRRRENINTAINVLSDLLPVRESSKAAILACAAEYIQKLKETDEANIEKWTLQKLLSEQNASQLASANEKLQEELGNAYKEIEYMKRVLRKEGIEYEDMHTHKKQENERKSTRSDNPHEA
Method: competition protein-binding microarray
Molecule type: double-stranded DNA, one strand shown
Medium: in vitro
Tested at: 2 µM
Notes: whole 60-bp probe, lowest competitor level
Together with: Pho4 competitor, 0.05 µM
Direction: higher = stronger binding
All sequences stand within: … GTCTTGATTCGCTTGACGCTGCTG
Strand | fluorescence intensity [a.u.]
TTGTTATCGTTAAACCACATGATGAAGGTTCCAAGT | 283
CGGGGTTAAGTTTGTCACCTTACTTGCTTGCAGCAG | 67.5
TATCGAAAAGGTCCTCACGTTATAAGGCTAACAAAT | 113
TCCGTCAGTGTAGCGCGCGTGCGGACCAGAACGTCT | 57.5
AGATGAGCGCTCAATCTCGTGAAGGCTATGTGTAGT | 109
AAAGCGGTAATTTGCTACGTGGGTGCAGATATCTAT | 79
CATACCCAACCTTGCGCCGTGGGTGAAGATATTTGT | 54.5
CTTTCCCGATCTTGGGTGGTGGGTGTAGCACATTTG | 75.2
CTAACGAAGGTTTGGAAAGTGGGTGACAAGCCAAGT | 62.3
TGCGCAACAACTTGGAGGGTGGGTGTATGTCTAGAA | 64.3
TGCGCAACAACTTTTCACGTGACCTTATGTCTAGAA | 9730
CATACCCAACCTTTTCACGTGAGATAAGATATTTGT | 1080
CGGTTTTTGGCGCGTTTCGTGACTCGAACACCCAGT | 81.9

Series 7
Target: Interferon regulatory factor 3, full length, phosphomimetic (IRF3, Homo sapiens, UniProt Q14653, residues 1-427, S386D/S396D/S398D/S402D/T404D/S405D)
Method: protein-binding microarray
Molecule type: double-stranded DNA, one strand shown
Medium: in vitro
Tested at: 2540 nM top
Notes: 60-bp whole probe
Together with: salmon DNA 0.4 mg/ml
Relative to: random background probes
Direction: higher = stronger binding
All sequences stand within: GCCTAGCAC … GTCTTGATTCGCTTGACGCTGCTG
Residues (chain): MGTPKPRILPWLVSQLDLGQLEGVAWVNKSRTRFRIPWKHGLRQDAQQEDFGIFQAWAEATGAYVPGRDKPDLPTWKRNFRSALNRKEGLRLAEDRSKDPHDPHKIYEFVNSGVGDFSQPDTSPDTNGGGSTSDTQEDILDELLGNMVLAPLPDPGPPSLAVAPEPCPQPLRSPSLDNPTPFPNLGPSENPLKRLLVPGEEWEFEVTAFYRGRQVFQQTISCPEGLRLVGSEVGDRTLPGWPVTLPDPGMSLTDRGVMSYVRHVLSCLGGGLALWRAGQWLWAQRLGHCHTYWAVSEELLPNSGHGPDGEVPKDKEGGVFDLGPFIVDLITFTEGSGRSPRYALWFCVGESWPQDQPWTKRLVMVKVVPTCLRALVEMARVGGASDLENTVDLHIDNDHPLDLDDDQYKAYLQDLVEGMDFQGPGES
Strand | fitted relative affinity
TTAGGACTGGGGTATCGCTTAGTGCTA | -0.615 z-score
GACGGTGTCGACTTTCGGGACGTGCTA | 1.33 z-score
GACGAACTGCTTCTCCTGACGTGCTAG | -0.196 z-score
TTAGAACTGAGTAGCGATTAGTGCTAG | -0.289 z-score
GTCCACTCCAGACCGTTTGCGTGCTAG | 0.325 z-score
TCACCTATCAGTTTAATACTGTGCTAG | 1.76 z-score
TCATGCTTAGTATTTTTTACTGTGCTA | -0.35 z-score
TCAATACTCGTTTACATACTGTGCTAG | 0.779 z-score
GACGGTATCGGGTTTCGCGACGTGCTA | 2.55 z-score
GACCGTATCCTTATCCTGACGTGCTAG | 4.44 z-score
CTAGTTAAGGTACACCAGCAGTGCTAG | 0.319 z-score
GTCGGTTTCGACTATCGGGACGTGCTA | 4.19 z-score
GACGGACTGGGTCTCGGGCCGTGCTAG | -1.08 z-score
AGGTTCTACTCCGTTAGTTGGTGCTAG | 0.168 z-score
TTAGGTTCCCTTTTCCTTCAGTGCTAG | 7.56 z-score
TTAGGACTGGCGTTTCGGTTAGTGCTA | 2 z-score
GACGGTATTCTTCTCCTGACGTGCTAG | 1.34 z-score
TTGAGTCTTCTCCTCTAGGTGTGCTAG | -0.625 z-score
TTAGGACTGGGGACTGGGTTAGTGCTA | -1.03 z-score
GAGGATATCGGGTTTCGAGACGTGCTA | 0.732 z-score

Mixed results
Substance | target | assay | test system | conditions | how to read | measurement | result
PhoQ, residues 284 288 289 292 302 303 GANMMA | PhoP, residues 12 14 15 18 19 HEGLL (Escherichia coli, UniProt P23836) | Sort-seq, refers to: YFP reporter | E. coli | PhoQ-PhoP variant library, together with: 10 µM Mg2+ | relative to: high Mg2+ state, higher = stronger signaling | fold induction | 0.894

A few entries again (series 2):
Modification | mean fluorescence intensity [a.u.]
2'F-ANA at 3 4 5 6 7 | 94.1
2'F-ANA at 7 8 12 14 | 350
2'F-ANA at 4 5 8 10 11 14 15 | 46.8
2'F-ANA at 2 3 4 7 8 10 11 13 14 | 179
2'F-ANA at 1 2 3 5 9 10 14 15 | 49.8
2'F-ANA at 3 4 5 6 11 13 | 64.6
